Measurements from different studies.
Each numbered part is a random draw from the data of one study; scales do not carry over between parts. Substitutions count along the parent as printed.

Sample 1 — technique: protein binding microarray; molecule type: double-stranded DNA, one strand shown; matrix: in vitro; tested at: not given; reference: not given; direction: higher = stronger binding
Target: Histone acetyltransferase KAT6A, winged helix 2, GST fusion (KAT6A, Homo sapiens, UniProt Q92794, residues 85-181)
Notes: 8-mer, flanks averaged, mean of 2 arrays, mostly near background
Target sequence (chain): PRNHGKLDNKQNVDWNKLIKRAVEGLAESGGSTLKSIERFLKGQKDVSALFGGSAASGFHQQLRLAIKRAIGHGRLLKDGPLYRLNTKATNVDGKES
Sequence	E-score
AGGTCATC	-0.177
GCAGACAC	0.165
CGAGCCGA	0.124
AGCACGTG	-0.0137
CCTGACTA	-0.0309
AGTCCCAC	-0.0296
AGATGTAT	-0.081
CCCCCTCA	-0.146
CTCTTGTC	-0.0206
AACATTAG	-0.232
ACAGACGA	-0.0575
ACCCGTAA	-0.165
ATATCATA	-0.0656
ACTCTCTA	-0.102
CTGTAGGA	-0.111
CAAACACC	0.0909
CACCTAAA	0.0554
CAATTCAA	-0.00814
ACATGACC	-0.239
AGAAAAAC	0.0425
ACACTAGT	-0.201
AAGTTCAC	-0.00268
GTAGATGA	-0.027
GAAAAATC	0.156
TCCCCAAA	-0.0309

Sample 2 — target: UBE2V1 UBC core domain (UniProt Q13404); technique: yeast two-hybrid; matrix: yeast; notes: mostly zero background; reference: not given; direction: higher = stronger interaction
B1: ZNRF3 RING domain (UniProt Q9ULT6); chain DTLSSSSTSDCAICLEKYIDGEELRVIPCTHRFHRKCVDPWLLQHHTCPHCRHNIIEQKGNP
B2: Ltn1 RING domain (UniProt Q6A009); chain VDKRFEGVEDCMICFSVIHGFNYSLPKKACRTCKKKFHSACLYKWFTSSNKSTCPLCRETFF
B3: TRIM48 RING domain (UniProt Q8IWZ4); chain ISQVFQRELTCPICMNYFIDPVTIDCGHSFCRPCFYLNWQDIPILTQCFECIKTIQQRNLKT
B4: RNF135 RING domain (UniProt Q8IUD6); chain PVWLAEDDLGCIICQGLLDWPATLPCGHSFCRHCLEALWGARDARRWACPTCRQGAAQQPHLR
B5: PRKN RING domain (UniProt O60260); chain LIATNSRNITCITCTDVRSPVLVFQCNSRHVICLDCFHLYCVTRLNDRQFVHDPQLGYSLPCVAGCPNSLIKELHH
B6: TRIM22 RING domain (UniProt Q8IYM9); chain KEVKMSPQEGQKRDVCEHHGKKLQIFCKEDGKVICWVCELSQEHQGHQTFRINEVVKECQEK
B7: DTX1 RING domain (UniProt Q86Y01); chain QKVKNPPDEDCTICMERLVTASGYEGVLRHKGVRPELVGRLGRCGHMYHLLCLVAMYSNGNKDGSLQCPTCKAIYGEKTGTQ
B8: RNF24 RING domain (UniProt Q9Y225); chain KVKELNLHELCAVCLEDFKPRDELGICPCKHAFHRKCLIKWLEVRKVCPLCNMPVLQLAQLH
B9: RNF181 RING domain (UniProt Q9P0P0); chain VIRGSQAELKCPVCLLEFEEEETAIEMPCHHLFHSSCILPWLSKTNSCPLCRYELPTDDDTY
Target sequence (chain): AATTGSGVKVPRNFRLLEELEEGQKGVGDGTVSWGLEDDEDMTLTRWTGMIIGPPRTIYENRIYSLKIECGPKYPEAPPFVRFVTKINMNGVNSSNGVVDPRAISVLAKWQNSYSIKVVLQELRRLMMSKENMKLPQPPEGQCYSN
Molecule	lacZ reporter activity
NTAPSLTVPECAICLQTCVHPVSLPCKHVFCYLCVKGASWLGKRCALCRQEIPEDFLDK (RNF146 RING domain (UniProt Q9NTX7))	0
KEQLEKHNDICAICYQDMKSAVITPCSHFFHAGCLKKWLYVQETCPLCHCHLKNSSQLP (RNF145 RING domain (UniProt Q96MT1))	0
B1 (ZNRF3 RING domain)	0
KLWDINAHITCRLCSGYLIDATTVTECLHTFCRSCLVKYLEENNTCPTCRIVIHQSHPLQ (PCGF3 RING domain (UniProt Q3KNV8))	0
B2 (Ltn1 RING domain)	0
ALDRLEKLLRCSRCTNILREPVCLGGCEHIFCSNCVSDCIGTGCPVCYTPAWIQDLKI (BARD1 RING domain (UniProt Q99728))	0
QLRRLQEERTCKVCLDRAVSIVFVPCGHLVCAECAPGLQLCPICRAPVRSRVRTF (BIRC7 RING domain (UniProt Q96CA5))	0
MDDQGCPRCKTTKYRNPSLKLMVNVCGHTLCESCVDLLFVRGAGNCPECGTPLRKSNFRV (MNAT1 RING domain (UniProt P51948))	0
B3 (TRIM48 RING domain)	0
B4 (RNF135 RING domain)	0
B5 (PRKN RING domain)	0
B6 (TRIM22 RING domain)	0
B7 (DTX1 RING domain)	0
KITELNPHLMCVLCGGYFIDATTIIECLHSFCKTCIVRYLETSKYCPICDVQVHKTRPLL (BMI1 RING domain (UniProt P35226))	0
B8 (RNF24 RING domain)	0
B9 (RNF181 RING domain)	0

Sample 3 — technique: DHFR PCA, deep sequencing; matrix: yeast; added: (+)-ABA 17 µM; reference: wild-type fitted maximum; direction: higher = stronger binding
Target: ABI1, truncated, D143A, DHFR fusion (Arabidopsis thaliana)
Notes: methotrexate growth selection, single substitutions
Parent: PYL1, truncated, DHFR fusion (Arabidopsis thaliana); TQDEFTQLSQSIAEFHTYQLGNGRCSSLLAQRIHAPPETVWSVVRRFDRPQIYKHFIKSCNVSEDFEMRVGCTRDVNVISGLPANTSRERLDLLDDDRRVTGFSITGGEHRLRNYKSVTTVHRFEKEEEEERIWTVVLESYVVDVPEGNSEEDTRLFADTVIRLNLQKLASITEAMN
Variant	relative binding score
R74A	3.43%
V136L	90.3%
E147W	63.8%
I105W	-16.7%
N177T	92.6%
E130K	96.8%
L166G	-7.1%
L93A	60.4%
R32A	69.5%
D75C	81.3%
I12W	14.4%
L164G	49.6%
T101P	0.856%
I162Q	9.45%
E125F	88%
D144N	48.5%
L138N	14.5%
L156G	57.1%
T17L	39.5%
A170C	88.3%
V40Q	6.33%
L28N	-15.8%
Q51T	41.8%
S150M	21.9%

Sample 4 — technique: competition protein-binding microarray; molecule type: double-stranded DNA, one strand shown; matrix: in vitro; tested at: 2 µM; added: Cbf1 competitor, 0.05 µM; direction: higher = stronger binding; all sequences stand within: … GTCTTGATTCGCTTGACGCTGCTG
Target: Phosphate system positive regulatory protein PHO4, full length, GST-tagged (PHO4, Saccharomyces cerevisiae, UniProt P07270, residues 1-312)
Notes: whole 60-bp probe, lowest competitor level
Construct (chain): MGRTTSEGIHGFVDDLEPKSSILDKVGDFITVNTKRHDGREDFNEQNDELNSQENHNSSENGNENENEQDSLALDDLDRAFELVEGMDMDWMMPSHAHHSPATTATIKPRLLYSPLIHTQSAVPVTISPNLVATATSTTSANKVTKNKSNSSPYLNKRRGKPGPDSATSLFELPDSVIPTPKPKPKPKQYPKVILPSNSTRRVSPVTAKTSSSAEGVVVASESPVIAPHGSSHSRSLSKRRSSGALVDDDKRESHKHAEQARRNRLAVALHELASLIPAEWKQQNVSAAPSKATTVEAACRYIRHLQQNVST
Sequence	fluorescence intensity [a.u.]
ATACCAGAGTATAGTGACGTGATGGGGTTGCATTAG	6320
AACGGAGACAGAAAGCACGTTGCCGCTTTGAGAACC	13500
CGGGGTTAAGTTTGTCACCGGACTTGCTTGCAGCAG	3560
CCCCGTAGGGCCCGACACGTCTAAAATATTAACCTC	4290
CTTTCCCGATCTTGTCACGTAACTTTAGCACATTTG	5200
AAAGCGGTAATTTGCTGGGTGGGTGCAGATATCTAT	4340
TTGTTCTTGATCGGCAGCATGACAAGGCTCTAAGTA	4340
CATACCCAACCTTGGGACGTGGGTGAAGATATTTGT	7500
CTTCTGTAAATTTGTTCGGTGGGTGGACGCGCCCCG	3970
ACTTCTACTAAGAGTAACGTGGCCGAGAAGAGAAGA	10900
TGCGCAACAACTTTTCACGTGCCCTTATGTCTAGAA	14500
AAATTACTAAGTTGTCACTTGACTTACCCCGTATGA	3180
CGTTATTTACTTCCACACGTGCTTTAAATGATGTGA	19000
TCGAACAACCTTCCCAACGTGAAGAAGCTAAGAAAG	7150
TTCCCGGGAGGGGTGGGCGTGCGATTGGAATTAGTC	10200
CGTCCTAGCGATTGAATTGTGGGTGCCATGAGGAAG	7080

Other studies, line by line — technique: two-hybrid; reference: out of 4 tests; direction: higher = firmer interaction
T1: itself; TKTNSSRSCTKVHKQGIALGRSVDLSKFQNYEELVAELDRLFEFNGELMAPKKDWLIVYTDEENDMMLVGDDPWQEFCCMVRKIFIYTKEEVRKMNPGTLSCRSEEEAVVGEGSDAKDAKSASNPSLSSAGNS
T2: itself; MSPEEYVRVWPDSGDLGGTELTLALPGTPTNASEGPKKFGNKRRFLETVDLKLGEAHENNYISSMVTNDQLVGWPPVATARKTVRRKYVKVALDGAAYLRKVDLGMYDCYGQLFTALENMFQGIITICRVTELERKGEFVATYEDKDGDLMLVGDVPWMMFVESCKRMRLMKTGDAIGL
T3: itself; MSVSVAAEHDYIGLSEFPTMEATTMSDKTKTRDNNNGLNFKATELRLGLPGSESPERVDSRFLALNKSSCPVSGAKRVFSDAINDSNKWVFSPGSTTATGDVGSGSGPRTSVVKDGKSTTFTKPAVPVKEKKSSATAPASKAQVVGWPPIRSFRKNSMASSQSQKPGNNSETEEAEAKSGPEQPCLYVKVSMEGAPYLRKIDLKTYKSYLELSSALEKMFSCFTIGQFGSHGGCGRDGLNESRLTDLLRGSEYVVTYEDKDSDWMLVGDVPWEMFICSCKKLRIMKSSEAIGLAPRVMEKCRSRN
T4: itself; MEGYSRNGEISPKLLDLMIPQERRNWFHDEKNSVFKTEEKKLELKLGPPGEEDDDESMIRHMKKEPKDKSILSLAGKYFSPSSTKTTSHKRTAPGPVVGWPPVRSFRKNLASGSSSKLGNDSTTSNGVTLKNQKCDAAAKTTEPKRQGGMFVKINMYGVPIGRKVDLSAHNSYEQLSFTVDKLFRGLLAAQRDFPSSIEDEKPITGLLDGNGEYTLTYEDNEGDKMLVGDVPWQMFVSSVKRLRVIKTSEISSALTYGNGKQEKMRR
B10: ARF2 727-859 (Arabidopsis thaliana, UniProt Q94JM3); chain TKTNSSRSCTKVHKQGIALGRSVDLSKFQNYEELVAELDRLFEFNGELMAPKKDWLIVYTDEENDMMLVGDDPWQEFCCMVRKIFIYTKEEVRKMNPGTLSCRSEEEAVVGEGSDAKDAKSASNPSLSSAGNS
B11: IAA15 (Arabidopsis thaliana, UniProt Q9C966); chain MSPEEYVRVWPDSGDLGGTELTLALPGTPTNASEGPKKFGNKRRFLETVDLKLGEAHENNYISSMVTNDQLVGWPPVATARKTVRRKYVKVALDGAAYLRKVDLGMYDCYGQLFTALENMFQGIITICRVTELERKGEFVATYEDKDGDLMLVGDVPWMMFVESCKRMRLMKTGDAIGL
B12: IAA18 (Arabidopsis thaliana, UniProt O24408); chain MEGYSRNGEISPKLLDLMIPQERRNWFHDEKNSVFKTEEKKLELKLGPPGEEDDDESMIRHMKKEPKDKSILSLAGKYFSPSSTKTTSHKRTAPGPVVGWPPVRSFRKNLASGSSSKLGNDSTTSNGVTLKNQKCDAAAKTTEPKRQGGMFVKINMYGVPIGRKVDLSAHNSYEQLSFTVDKLFRGLLAAQRDFPSSIEDEKPITGLLDGNGEYTLTYEDNEGDKMLVGDVPWQMFVSSVKRLRVIKTSEISSALTYGNGKQEKMRR
Substance	partner	positive tests
B10 (ARF2 727-859)	T1, itself	0
B11 (IAA15)	T2, itself	2
IAA27 (Arabidopsis thaliana, UniProt Q9ZSY8)	T3, itself	2
B12 (IAA18)	T4, itself	1

Some of these lines once more (sample 4):
Sequence	fluorescence intensity [a.u.]
CGGGGTTAAGTTTGTCACCGGACTTGCTTGCAGCAG	3560
CCCCGTAGGGCCCGACACGTCTAAAATATTAACCTC	4290
CTTTCCCGATCTTGTCACGTAACTTTAGCACATTTG	5200
AAAGCGGTAATTTGCTGGGTGGGTGCAGATATCTAT	4340
TTGTTCTTGATCGGCAGCATGACAAGGCTCTAAGTA	4340
CATACCCAACCTTGGGACGTGGGTGAAGATATTTGT	7500
CTTCTGTAAATTTGTTCGGTGGGTGGACGCGCCCCG	3970
ACTTCTACTAAGAGTAACGTGGCCGAGAAGAGAAGA	10900
TGCGCAACAACTTTTCACGTGCCCTTATGTCTAGAA	14500
AAATTACTAAGTTGTCACTTGACTTACCCCGTATGA	3180
CGTTATTTACTTCCACACGTGCTTTAAATGATGTGA	19000
TCGAACAACCTTCCCAACGTGAAGAAGCTAAGAAAG	7150
TTCCCGGGAGGGGTGGGCGTGCGATTGGAATTAGTC	10200
CGTCCTAGCGATTGAATTGTGGGTGCCATGAGGAAG	7080
